Published values of several laboratories.
Each numbered part is a random draw from the data of one study; scales do not carry over between parts.
Sequence of UniProt Q9UL54 (whole entry, looked up): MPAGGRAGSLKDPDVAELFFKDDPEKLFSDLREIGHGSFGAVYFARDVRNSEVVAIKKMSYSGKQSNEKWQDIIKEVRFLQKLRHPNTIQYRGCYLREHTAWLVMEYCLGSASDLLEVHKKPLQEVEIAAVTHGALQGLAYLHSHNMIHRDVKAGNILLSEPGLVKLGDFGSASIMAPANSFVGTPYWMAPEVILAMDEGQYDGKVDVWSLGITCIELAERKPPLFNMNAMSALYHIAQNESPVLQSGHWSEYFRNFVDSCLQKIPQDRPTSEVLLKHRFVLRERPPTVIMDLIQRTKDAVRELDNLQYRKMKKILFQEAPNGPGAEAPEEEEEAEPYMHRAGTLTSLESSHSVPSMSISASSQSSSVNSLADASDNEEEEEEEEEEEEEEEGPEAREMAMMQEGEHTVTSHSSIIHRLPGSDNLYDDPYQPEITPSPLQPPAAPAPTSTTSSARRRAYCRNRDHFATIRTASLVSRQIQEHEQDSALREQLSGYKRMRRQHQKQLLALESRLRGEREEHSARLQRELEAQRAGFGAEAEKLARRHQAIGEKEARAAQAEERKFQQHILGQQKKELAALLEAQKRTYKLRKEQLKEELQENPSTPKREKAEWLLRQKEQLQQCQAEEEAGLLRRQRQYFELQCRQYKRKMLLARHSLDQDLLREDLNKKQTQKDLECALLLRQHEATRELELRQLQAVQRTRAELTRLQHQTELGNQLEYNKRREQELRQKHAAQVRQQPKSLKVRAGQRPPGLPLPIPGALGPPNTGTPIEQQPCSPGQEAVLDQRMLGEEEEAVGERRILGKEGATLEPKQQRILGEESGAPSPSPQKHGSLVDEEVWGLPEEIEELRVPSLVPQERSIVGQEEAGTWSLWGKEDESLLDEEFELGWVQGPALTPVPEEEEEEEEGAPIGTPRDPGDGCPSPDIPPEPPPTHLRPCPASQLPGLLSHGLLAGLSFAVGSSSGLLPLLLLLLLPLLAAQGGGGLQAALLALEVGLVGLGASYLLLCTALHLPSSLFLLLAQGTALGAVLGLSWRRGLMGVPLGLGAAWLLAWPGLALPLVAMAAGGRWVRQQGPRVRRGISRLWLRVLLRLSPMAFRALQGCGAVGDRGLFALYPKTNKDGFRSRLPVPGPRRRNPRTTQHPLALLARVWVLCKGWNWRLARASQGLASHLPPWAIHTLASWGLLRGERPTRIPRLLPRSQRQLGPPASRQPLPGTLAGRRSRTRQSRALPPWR
Sequence of UniProt P49841 (whole entry, looked up): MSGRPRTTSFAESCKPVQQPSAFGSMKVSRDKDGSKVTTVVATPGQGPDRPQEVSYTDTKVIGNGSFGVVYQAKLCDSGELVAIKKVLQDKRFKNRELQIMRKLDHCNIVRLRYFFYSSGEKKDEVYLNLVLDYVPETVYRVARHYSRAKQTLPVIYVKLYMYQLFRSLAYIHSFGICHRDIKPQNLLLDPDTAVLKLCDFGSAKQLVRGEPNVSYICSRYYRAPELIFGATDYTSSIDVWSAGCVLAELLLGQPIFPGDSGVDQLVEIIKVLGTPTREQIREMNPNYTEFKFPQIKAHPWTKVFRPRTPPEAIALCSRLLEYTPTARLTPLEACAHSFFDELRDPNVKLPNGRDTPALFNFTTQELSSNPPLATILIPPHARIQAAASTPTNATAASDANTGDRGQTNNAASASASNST
Sequence of UniProt P52333 (whole entry, looked up): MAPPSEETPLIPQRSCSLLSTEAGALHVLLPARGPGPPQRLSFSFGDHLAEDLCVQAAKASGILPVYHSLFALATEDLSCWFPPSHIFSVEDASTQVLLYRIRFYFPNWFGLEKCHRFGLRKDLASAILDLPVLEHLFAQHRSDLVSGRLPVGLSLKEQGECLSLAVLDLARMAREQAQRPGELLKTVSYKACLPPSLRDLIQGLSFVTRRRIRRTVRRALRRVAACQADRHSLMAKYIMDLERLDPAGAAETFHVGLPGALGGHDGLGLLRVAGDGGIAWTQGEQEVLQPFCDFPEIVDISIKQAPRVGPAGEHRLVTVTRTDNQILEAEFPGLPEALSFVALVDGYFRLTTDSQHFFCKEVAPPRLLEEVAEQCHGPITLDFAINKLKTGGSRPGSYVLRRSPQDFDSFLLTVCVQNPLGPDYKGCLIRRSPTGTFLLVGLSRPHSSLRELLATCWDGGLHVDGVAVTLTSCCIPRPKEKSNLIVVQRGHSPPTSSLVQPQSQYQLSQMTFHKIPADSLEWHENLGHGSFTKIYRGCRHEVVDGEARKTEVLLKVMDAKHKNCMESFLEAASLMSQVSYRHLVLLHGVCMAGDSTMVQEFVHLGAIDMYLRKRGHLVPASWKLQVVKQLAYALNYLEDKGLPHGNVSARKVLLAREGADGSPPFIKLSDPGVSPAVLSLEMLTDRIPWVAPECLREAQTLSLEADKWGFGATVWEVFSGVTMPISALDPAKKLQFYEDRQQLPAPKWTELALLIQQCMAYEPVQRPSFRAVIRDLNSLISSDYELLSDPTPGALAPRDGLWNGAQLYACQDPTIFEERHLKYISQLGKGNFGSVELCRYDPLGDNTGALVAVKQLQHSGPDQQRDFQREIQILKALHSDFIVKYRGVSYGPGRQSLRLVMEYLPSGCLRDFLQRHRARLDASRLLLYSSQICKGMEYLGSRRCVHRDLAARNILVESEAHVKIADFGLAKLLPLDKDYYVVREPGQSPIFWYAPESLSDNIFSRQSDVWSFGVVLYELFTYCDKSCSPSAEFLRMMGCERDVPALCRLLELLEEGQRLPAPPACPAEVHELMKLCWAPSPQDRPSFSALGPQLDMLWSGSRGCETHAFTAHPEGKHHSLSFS
Sequence of UniProt Q6PHR2 (whole entry, looked up): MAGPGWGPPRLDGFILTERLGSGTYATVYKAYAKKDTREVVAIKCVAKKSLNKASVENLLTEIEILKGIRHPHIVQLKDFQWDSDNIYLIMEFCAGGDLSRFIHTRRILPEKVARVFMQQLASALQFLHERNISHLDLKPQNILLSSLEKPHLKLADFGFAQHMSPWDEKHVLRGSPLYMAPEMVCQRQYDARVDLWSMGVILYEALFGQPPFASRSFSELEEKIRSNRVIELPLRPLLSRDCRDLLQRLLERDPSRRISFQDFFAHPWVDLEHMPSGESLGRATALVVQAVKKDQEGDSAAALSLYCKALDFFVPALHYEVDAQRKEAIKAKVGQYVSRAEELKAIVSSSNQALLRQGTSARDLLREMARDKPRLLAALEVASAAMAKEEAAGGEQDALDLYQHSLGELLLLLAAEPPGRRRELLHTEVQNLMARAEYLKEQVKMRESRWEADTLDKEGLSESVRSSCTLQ
Sequence of UniProt Q02763 (whole entry, looked up): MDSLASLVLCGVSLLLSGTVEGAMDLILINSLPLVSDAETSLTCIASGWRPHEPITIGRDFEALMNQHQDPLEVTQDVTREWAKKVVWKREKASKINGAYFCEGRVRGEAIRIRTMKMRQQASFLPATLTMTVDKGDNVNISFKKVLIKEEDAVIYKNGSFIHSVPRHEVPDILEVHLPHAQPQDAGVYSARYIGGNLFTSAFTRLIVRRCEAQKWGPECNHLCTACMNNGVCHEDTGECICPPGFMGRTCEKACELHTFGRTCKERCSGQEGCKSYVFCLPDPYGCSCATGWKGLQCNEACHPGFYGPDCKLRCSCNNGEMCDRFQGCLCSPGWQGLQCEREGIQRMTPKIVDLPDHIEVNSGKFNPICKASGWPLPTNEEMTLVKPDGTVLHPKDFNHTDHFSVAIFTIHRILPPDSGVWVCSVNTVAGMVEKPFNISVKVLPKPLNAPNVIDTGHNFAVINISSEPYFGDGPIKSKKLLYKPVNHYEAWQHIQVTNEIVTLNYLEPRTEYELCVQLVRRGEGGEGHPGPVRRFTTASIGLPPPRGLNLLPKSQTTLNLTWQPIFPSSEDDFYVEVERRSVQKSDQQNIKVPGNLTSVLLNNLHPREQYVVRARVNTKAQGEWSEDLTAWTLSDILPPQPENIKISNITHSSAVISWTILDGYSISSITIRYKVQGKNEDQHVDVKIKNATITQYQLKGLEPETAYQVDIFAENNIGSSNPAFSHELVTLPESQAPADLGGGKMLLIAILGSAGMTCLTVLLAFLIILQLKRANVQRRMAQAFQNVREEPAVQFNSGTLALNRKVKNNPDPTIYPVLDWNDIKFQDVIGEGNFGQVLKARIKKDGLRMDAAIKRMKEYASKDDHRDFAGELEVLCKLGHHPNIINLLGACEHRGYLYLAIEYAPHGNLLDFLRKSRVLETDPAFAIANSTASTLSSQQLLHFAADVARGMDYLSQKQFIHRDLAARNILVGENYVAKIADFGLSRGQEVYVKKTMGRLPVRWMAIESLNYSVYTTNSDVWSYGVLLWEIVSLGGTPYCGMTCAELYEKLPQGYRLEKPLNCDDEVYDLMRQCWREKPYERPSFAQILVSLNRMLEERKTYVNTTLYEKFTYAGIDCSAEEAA

Block 1
Target: Translocator protein (Tspo, Rattus norvegicus, UniProt P16257)
Sequence of UniProt P16257 (whole entry, looked up): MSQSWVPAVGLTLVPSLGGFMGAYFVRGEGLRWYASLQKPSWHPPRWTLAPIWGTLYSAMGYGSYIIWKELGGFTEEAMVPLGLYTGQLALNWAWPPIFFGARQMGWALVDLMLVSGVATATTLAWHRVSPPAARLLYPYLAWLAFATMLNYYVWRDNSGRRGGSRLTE
Observed: radioligand binding
Method: radioligand displacement
Tested at: 10 µM
With CCOCCn1cc(C(=O)Nc2ccc(-n3nc(-c4cccnc4)cc3C(F)(F)F)cn2)ccc1=O the inhibition was -5.52%.
CC(=O)Nc1c(F)cc(C(=O)N[C@H]2CC[C@H](O)CC2)cc1O[C@@H](C)c1ccccc1 gave an inhibition of 5.68%.
With O[C@]1(C(F)(F)F)CCCC[C@H]1Nc1ccc(F)cc1 the inhibition was 2.79%.
O=C(NCc1ncc(C(F)(F)F)cc1Cl)c1ccc2c(c1)C1(CCS(=O)(=O)CC1)[C@H](C1CC1)N2S(=O)(=O)c1ccc(F)cc1 gave an inhibition of 7.97%.
c1ccc2oc(-c3csc(C4CCN(Cc5nc6ncccc6[nH]5)CC4)n3)cc2c1 has an inhibition of 20.2%.

Block 2
SMILES: Nc1nccc(-c2c(-c3ccc(F)cc3)ncn2C2CCNCC2)n1
Observed: enzyme activity
Mode: inhibitor
Tested at: 0.5 µM
Reference: control
Serine/threonine-protein kinase TAO2 (TAOK2, Homo sapiens, UniProt Q9UL54) — remaining activity: 98%.
The remaining activity was 105% (Dual specificity mitogen-activated protein kinase kinase 2 (MAP2K2, Homo sapiens, UniProt P36507)).
Casein kinase I isoform gamma-3 (CSNK1G3, Homo sapiens, UniProt Q9Y6M4) — remaining activity: 83.9%.
It gave 95.1% for remaining activity (Tyrosine-protein kinase ABL2 (ABL2, Homo sapiens, UniProt P42684)).
It gave 95.5% for remaining activity (Serine/threonine-protein kinase ULK3 (ULK3, Homo sapiens, UniProt Q6PHR2)).
It gave 106% for remaining activity (Rhodopsin kinase GRK7 (GRK7, Homo sapiens, UniProt Q8WTQ7)).
The remaining activity was 100% (Serine/threonine-protein kinase Nek1 (NEK1, Homo sapiens, UniProt Q96PY6)).
For Tyrosine-protein kinase FRK (FRK, Homo sapiens, UniProt P42685): remaining activity read 95.4%.
It gave 101% for remaining activity (Angiopoietin-1 receptor (TEK, Homo sapiens, UniProt Q02763)).
The remaining activity was 101% (Glycogen synthase kinase-3 beta (GSK3B, Homo sapiens, UniProt P49841)).
Mitogen-activated protein kinase kinase kinase 14 (MAP3K14, Homo sapiens, UniProt Q99558) — remaining activity: 107%.
The remaining activity was 96.9% (Tyrosine-protein kinase JAK3 (JAK3, Homo sapiens, UniProt P52333)).
The remaining activity was 98% (Tyrosine-protein kinase Mer (MERTK, Homo sapiens, UniProt Q12866)).
For Serine/threonine-protein kinase A-Raf (ARAF, Homo sapiens, UniProt P10398): remaining activity read 93.1%.

Block 3
Target: Prothrombin, mature alpha-thrombin (F2, Homo sapiens, UniProt P00734)
Method: aptamer microarray, sandwich
Form: DNA with 2'F-ANA
Sample: in vitro
Tested at: 200 nM
Setting: whole 15-mer aptamer, many near background
With: Cy3 exosite-II aptamer, 400 nM
Reading: higher = stronger binding
Strand: GGTTGGTGTGGTTGG
For `2'F-ANA at 4 5 6 7 8 10 13 14`, “mean fluorescence intensity” read 46.3 a.u.
Under “mean fluorescence intensity”, `2'F-ANA at 2 3 5 6 11 12 14 15` is recorded as 84.3 a.u.
`2'F-ANA at 2 3 6 7 8 11 12 14 15`: “mean fluorescence intensity” 425 a.u.
Under “mean fluorescence intensity”, `2'F-ANA at 3 7 8 9 13` is recorded as 1050 a.u.
`2'F-ANA at 1 2 4 5 6 8 9 10 12 13 14` — result for “mean fluorescence intensity”: 48.8 a.u.
Under “mean fluorescence intensity”, `2'F-ANA at 2 6 7 8 9 11 13 14` is recorded as 111 a.u.
`2'F-ANA at 2 4 5 7 9 10 12 13 14 15` — result for “mean fluorescence intensity”: 64.1 a.u.
Under “mean fluorescence intensity”, `2'F-ANA at 1 2 3 4 9 10 11 13 15` is recorded as 57 a.u.

Block 4
Target: Centromere-binding protein 1, full length, His-tagged (CBF1, Saccharomyces cerevisiae, UniProt P17106, residues 1-351)
Sequence of UniProt P17106 (whole entry, looked up): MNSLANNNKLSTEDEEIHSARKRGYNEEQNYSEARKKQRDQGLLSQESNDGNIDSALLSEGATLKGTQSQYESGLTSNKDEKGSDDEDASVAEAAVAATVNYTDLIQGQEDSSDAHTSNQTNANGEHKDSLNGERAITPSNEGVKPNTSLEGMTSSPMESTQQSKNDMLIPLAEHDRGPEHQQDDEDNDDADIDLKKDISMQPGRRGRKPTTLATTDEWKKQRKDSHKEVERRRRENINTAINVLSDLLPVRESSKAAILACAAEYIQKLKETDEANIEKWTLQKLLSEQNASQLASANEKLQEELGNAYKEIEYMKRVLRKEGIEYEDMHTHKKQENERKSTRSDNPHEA
Method: competition protein-binding microarray
Form: double-stranded DNA, one strand shown
Sample: in vitro
Tested at: 2 µM
Setting: whole 60-bp probe, lowest competitor level
With: Pho4 competitor, 0.05 µM
Reading: higher = stronger binding
Shared flanks, not repeated: … GTCTTGATTCGCTTGACGCTGCTG
With `CATACCCAACCTTGTGGCGTGGGTGAAGATATTTGT` the fluorescence intensity was 59.5 a.u.
For `CGTCCTAGTGATTGGTTAGTGGGTGCCATGAGGAAG`, the fluorescence intensity was 73.6 a.u.
The fluorescence intensity of `GGAGAAGGTATTGATAACCTGCGGGACCGTCTGGTG` is reported as 63 a.u.
For `CGGGGTTAAGTTTGGATTGTGGGTGGCTTGCAGCAG`, the fluorescence intensity was 65.1 a.u.
With `AAGTTTGCTGAGGACATCGTGACTCGCCGCAAGCTA` the fluorescence intensity was 149 a.u.
`CTAACGAAGGTTTTTCACGTGATTTACAAGCCAAGT` has a fluorescence intensity of 4530 a.u.
For `AGAAAATCATATCACCACGTGGACCTCTCAAAGACT`, the fluorescence intensity was 1110 a.u.
For `CATACCCAACCTTGTCACCACACTTAAGATATTTGT`, the fluorescence intensity was 85.8 a.u.

For quick reference, copied from above (block 2):
It gave 95.1% for remaining activity (Tyrosine-protein kinase ABL2 (ABL2, Homo sapiens, UniProt P42684)).
It gave 95.5% for remaining activity (Serine/threonine-protein kinase ULK3 (ULK3, Homo sapiens, UniProt Q6PHR2)).
